# Assay results from different studies.
# Each line is one published result; not all experiments were run side by side.
# B1: NUP60 240-318 (Saccharomyces cerevisiae, UniProt P39705); sequence looked up; chain TYTANTSAQSIASAKSVRSGVSKSAPSKKISNTAAALVSLLDENDSKKNNAASELANPYSSYVSQIRKHKRVSPNAAPR
# B2: CCDC93 305-433 (Homo sapiens, UniProt Q567U6); chain SPEKLGTSQLHRRKVISLNKQIAQKTKHLEELRASHTSLQARYNEAKKTLTELKTYSEKLDKEQAALEKIESKADPSILQNLRALVAMNENLKSQEQEFKAHCREEMTRLQQEIENLKAERAPRGDEKT
# B3: NFE2L2 155-220 (Homo sapiens, UniProt Q16236); chain GVFIATNQAQSPETSVAQVAPVDLDGMQQDIEQVWEELLSIPELQCLNIENDKLVETTMVPSPEAKL
# B4: RAD51 (Saccharomyces cerevisiae, UniProt P25454); sequence looked up; chain MSQVQEQHISESQLQYGNGSLMSTVPADLSQSVVDGNGNGSSEDIEATNGSGDGGGLQEQAEAQGEMEDEAYDEAALGSFVPIEKLQVNGITMADVKKLRESGLHTAEAVAYAPRKDLLEIKGISEAKADKLLNEAARLVPMGFVTAADFHMRRSELICLTTGSKNLDTLLGGGVETGSITELFGEFRTGKSQLCHTLAVTCQIPLDIGGGEGKCLYIDTEGTFRPVRLVSIAQRFGLDPDDALNNVAYARAYNADHQLRLLDAAAQMMSESRFSLIVVDSVMALYRTDFSGRGELSARQMHLAKFMRALQRLADQFGVAVVVTNQVVAQVDGGMAFNPDPKKPIGGNIMAHSSTTRLGFKKGKGCQRLCKVVDSPCLPEAECVFAIYEDGVGDPREEDE
# B5: exbD 43-140 (Serratia marcescens, UniProt V5YUQ0); sequence looked up; chain VDIRVDLPASSAKPQPRPEKPVFLSVKADKQLYVGDQPVNADQLTSVLDQRTQANKETTIFFQADKSVDYETLMSVMDTLRKAGYLKVGLVGMEGAAK
# B6: Secisbp2 399-846 x (Rattus norvegicus, UniProt Q9QX72); sequence looked up; chain EFPNLSVASERRHRGESPKLQSKQQAQNDFKTGGKKSQVPVQLDLGGMLAALEKQQHAPHAKPSSRPVVFSVGAVPVLSKDASSGERGRRSSQVKTPHNPLDSSAAAAAAGKQREIPKAKKPTSLKKIILKERQERMQQRLQESAVSPTVASDDSQDVESGVTNQIPSPDNPTGPEKTEEPMSSTPVVEGESEEPAGTEFQRDPEACQPAPDSATFPKIHSRRFRDYCSQMLSKEVDACVTGLLKELVRFQDRMYQKDPVKAKTKRRLVLGLREVLKHLKLRKLKCIIISPNCEKTQSKGGLDDTLHTIIDCACEQNIPFVFALNRKALGRSLNKAVPVSIVGIFSYDGAQDQFHKMVELTMAARQAYKTMLETMRQEQAGEPGPQTPPSPPMQDPIQSTDEGTLASTGEEPHYIEIWRKHLEAYSQHALELEDSLEASTSQMMNLNL
# B7: qcr10 (Schizosaccharomyces pombe, UniProt Q9P7E0); sequence looked up; chain MISFFPNKPMYHVQPHISFITPERTMKTIPAFSRWAFAAVAGVFVFAMQVPKVKTTILQPIAFIGDHFKDKTPEEDKWL
# B8: SF3B1 454-1304 R625H (Homo sapiens, UniProt O75533); chain KSVNDQPSGNLPFLKPDDIQYFDKLLVDVDESTLSPEEQKERKIMKLLLKIKNGTPPMRKAALRQITDKAREFGAGPLFNQILPLLMSPTLEDQERHLLVKVIDRILYKLDDLVRPYVHKILVVIEPLLIDEDYYARVEGREIISNLAKAAGLATMISTMRPDIDNMDEYVHNTTARAFAVVASALGIPSLLPFLKAVCKSKKSWQARHTGIKIVQQIAILMGCAILPHLRSLVEIIEHGLVDEQQKVRTISALAIAALAEAATPYGIESFDSVLKPLWKGIRQHRGKGLAAFLKAIGYLIPLMDAEYANYYTREVMLILIREFQSPDEEMKKIVLKVVKQCCGTDGVEANYIKTEILPPFFKHFWQHRMALDRRNYRQLVDTTVELANKVGAAEIISRIVDDLKDEAEQYRKMVMETIEKIMGNLGAADIDHKLEEQLIDGILYAFQEQTTEDSVMLNGFGTVVNALGKRVKPYLPQICGTVLWRLNNKSAKVRQQAADLISRTAVVMKTCQEEKLMGHLGVVLYEYLGEEYPEVLGSILGALKAIVNVIGMHKMTPPIKDLLPRLTPILKNRHEKVQENCIDLVGRIADRGAEYVSAREWMRICFELLELLKAHKKAIRRATVNTFGYIAKAIGPHDVLATLLNNLKVQERQNRVCTTVAIAIVAETCSPFTVLPALMNEYRVPELNVQNGVLKSLSFLFEYIGEMGKDYIYAVTPLLEDALMDRDLVHRQTASAVVQHMSLGVYGFGCEDSLNHLLNYVWPNVFETSPHVIQAVMGALEGLRVAIGPCRMLQYCLQGLFHPARKVRDVYWKIYNSIYIGSQDALIAHYPRIYNDDKNTYIRYELDYIL
# B9: CFTR 1381-1480 (Homo sapiens, UniProt P13569); sequence looked up; chain YQIIRRTLKQAFADCTVILCEHRIEAMLECQQFLVIEENKVRQYDSIQKLLNERSLFRQAISPSDRVKLFPHRNSSKCKSKPQIAALKEETEEEVQDTRL
# B10: SIN4 1-974 (Saccharomyces cerevisiae, UniProt P32259); chain MMLGEHLMSWSKTGIIAYSDSQSSNANICLTFLESINGINWRFHTPQKYVLHPQLHEVQYQESSSTLSTHSTTTSVNGSTTAGVGSTPNFGGNSNKSPPQFFYNISSIHWNNWFSLPGDMLAVCDELGNMTMLITGQRPDRATTYEKLTMVFQDNVYKIYNHVMPLKPVDKLKPMNIERKQTRKEYNTSILEFRWLTSSKSVIVSQFCAFDSSSNTYRSRAQQVPPYGVYHPPFIKYACLAIRKNGQIDFWYQFSNSKDHKKITLQLLDTSNQRFKDLQWLEFARITPMNDDQCMLITTYSKLSKNISFYKLHVNWNLNATKPNVLNDPSLKIQFILSTTLDPTDDEGHVLKLENLHVVSKSSIEKDPSPEILVLYNVCDTSKSLVKRYRLAPTQLSAEYLVILKPDLNIDRNNSTNQIFQSRRYNLRRHSDIVLDKKVTLITSEMFDAFVSFYFEDGTIESYNQNDWKLETERLISQSQLGKFKNIIASPLSAGFNYGKLPLPPSVEWMKVSPSMCGVIVKQYNKKWPQFYAAVQKNYADPEKDSINATALAFGYVKSLHKQISAEDLTIAAKTHILRISFLDRKRAKEFITTLLKSLYSFFNISPDAPKEIMDKIITSRPLQKIMLLQLELGSCFSQENIEEMARVILYLKNVLFAFNGVARNFHFAIEQISNNSNQQQNPKLFQTIFSKQDLIHSLIPVAKWFVKFITYLTQEILILINDPTNKEYTLVHGIFGAKMSRTLILSILNEIKKVTQIVAKFPETSYPILNESSTFLKLVLSESPVDFEKFETFLVDVNNKFIALCEQQPSQEREFSLLVKAEIPPEYAKVGDFLLQYANNAVISHANAAAVYFADTSGLKISNSEFFNPEIFHLLQPLEEGLIIDTDKLPIKNRTSKSFSKLLYDDVTCDKLSVSEISDGKLKRCSRCGSVTRAGNIISSDKTIVPTSIQTKRWPTMYTRLCICSGMLFEMDG
# B11: PIK3R1 1-79 (Homo sapiens, UniProt P27986); chain MSAEGYQYRALYDYKKEREEDIDLHLGDILTVNKGSLVALGFSDGQEARPEEIGWLNGYNETTGERGDFPGTYVEYIGR
# B12: rasC Q62L/R164E (Dictyostelium discoideum, UniProt P32253); sequence looked up; chain MSKLLKLVIVGDGGVGKSALTIQLTQNQFIAEYDPTIENSYRKQVNIDEEVYMLDILDTAGLEEYSAMRDQYIRSGRGFLIVYSIISRASFEAVTTFREQILRVKDLSTYPIVIIGNKADLPDKDRKVPPMEGKELAKSFGAPFLETSAKSRVNVEEAFFTLVEEIKRWNQNPQNEEMLPPKKRGCIIL
# B13: SNAPC5 (Homo sapiens, UniProt O75971); chain MLSRLQELRKEEETLLRLKAALHDQLNRLKVEELALQSMISSRRGDEMLSSHTVPEQSHDMLVHVDNEASINQTTLELSTKSHVTEEEEEEEEEESDS
# B14: PSMA5 (Homo sapiens, UniProt P28066); chain MFLTRSEYDRGVNTFSPEGRLFQVEYAIEAIKLGSTAIGIQTSEGVCLAVEKRITSPLMEPSSIEKIVEIDAHIGCAMSGLIADAKTLIDKARVETQNHWFTYNETMTVESVTQAVSNLALQFGEEDADPGAMSRPFGVALLFGGVDEKGPQLFHMDPSGTFVQCDARAIGSASEGAQSSLQEVYHKSMTLKEAIKSSLIILKQVMEEKLNATNIELATVQPGQNFHMFTKEELEEVIKDI
# B15: ND6 1-185 (Yarrowia lipolytica, UniProt Q9B6E9); sequence looked up; chain MMYLTYYFIEITIFLAILCTIFIISAKNPMVSILYMIALFVIAAMYLYLIGLGIFSLLYIMIYIGAIAVLFLFIITLLDINSTELSVKSNIRDLPLVLISLIVLTISGLMIYSNDSILINKLLEAFGNDYNTIITQDWFNIENTTLLTTIGNVLLTNNAFILLVLAIVLLLGIIGPISITMKHKE
# B16: KPNA6 (Homo sapiens, UniProt O60684); chain METMASPGKDNYRMKSYKNNALNPEEMRRRREEEGIQLRKQKREQQLFKRRNVELINEEAAMFDSLLMDSYVSSTTGESVITREMVEMLFSDDSDLQLATTQKFRKLLSKEPSPPIDEVINTPRVVDRFVEFLKRNENCTLQFEAAWALTNIASGTSQQTKIVIEAGAVPIFIELLNSDFEDVQEQAVWALGNIAGDSSVCRDYVLNCSILNPLLTLLTKSTRLTMTRNAVWALSNLCRGKNPPPEFAKVSPCLPVLSRLLFSSDSDLLADACWALSYLSDGPNEKIQAVIDSGVCRRLVELLMHNDYKVASPALRAVGNIVTGDDIQTQVILNCSALPCLLHLLSSPKESIRKEACWTISNITAGNRAQIQAVIDANIFPVLIEILQKAEFRTRKEAAWAITNATSGGTPEQIRYLVSLGCIKPLCDLLTVMDSKIVQVALNGLENILRLGEQEGKRSGSGVNPYCGLIEEAYGLDKIEFLQSHENQEIYQKAFDLIEHYFGVEDDDSSLAPQVDETQQQFIFQQPEAPMEGFQL
# B17: SIR4 744-1358 (Saccharomyces cerevisiae, UniProt P11978); sequence looked up; chain PGKMELVYVSDSDDSSSDNDSLTDLESLSSGESNEIKVTNDLDTSAEKDQIQAGKWFDPVLDWRKSDRELTKNILWRIADKTTYDKETITDLIEQGIPKHSYLSGNPLTSVTNDICSVENYETSSAFFYQQVHKKDRLQYLPLYAVSTFENTNNTEKNDVTNKNINIGKHSQEQNSSSAKPSQIPTVSSPLGFEETKLSTTPTKSNRRVSHSDTNSSKPKNTKENLSKSSWRQEWLANLKLISVSLVDEFPSELSDSDRQIINEKMQLLKDIFANNLKSAISNNFRESDIIILKGEIEDYPMSSEIKIYYNELQNKPDAKKARFWSFMKTQRFVSNMGFDIQKSCEPVSISTSVKPHVVEPEHMADAKIMPKDILQITKKPLMVKNVKPSSPPDVKSLVQLSTMETKTLPEKKQFDSIFNSNKAKIIPGNGKHASENISLSFSRPASYGYFSVGKRVPIVEDRRVKQLDDITDSNTTEILTSVDVLGTHSQTGTQQSNMYTSTQKTELEIDNKDSVTECSKDMKEDGLSFVDIVLSKAASALDEKEKQLAVANEIIRSLSDEVMRNEIRITSLQGDLTFTKKCLENARSQISEKDAKINKLMEKDFQVNKEIKPY
# Chain of UniProt Q9JHW4 (whole entry, looked up): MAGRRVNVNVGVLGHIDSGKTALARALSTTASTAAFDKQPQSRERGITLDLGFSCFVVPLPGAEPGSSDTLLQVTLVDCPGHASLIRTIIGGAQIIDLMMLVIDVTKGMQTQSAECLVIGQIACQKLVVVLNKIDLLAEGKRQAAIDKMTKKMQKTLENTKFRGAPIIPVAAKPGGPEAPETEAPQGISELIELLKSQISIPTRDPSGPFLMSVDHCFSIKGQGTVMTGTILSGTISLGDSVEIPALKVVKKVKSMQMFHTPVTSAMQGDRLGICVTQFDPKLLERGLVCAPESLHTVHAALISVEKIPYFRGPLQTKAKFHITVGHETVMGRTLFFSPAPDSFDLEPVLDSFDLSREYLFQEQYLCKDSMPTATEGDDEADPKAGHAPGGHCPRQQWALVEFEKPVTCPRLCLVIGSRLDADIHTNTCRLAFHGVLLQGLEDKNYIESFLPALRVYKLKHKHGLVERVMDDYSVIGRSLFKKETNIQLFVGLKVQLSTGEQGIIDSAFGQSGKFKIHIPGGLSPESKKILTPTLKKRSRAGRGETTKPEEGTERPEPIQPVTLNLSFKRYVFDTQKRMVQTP
# Chain of UniProt Q16533 (whole entry, looked up): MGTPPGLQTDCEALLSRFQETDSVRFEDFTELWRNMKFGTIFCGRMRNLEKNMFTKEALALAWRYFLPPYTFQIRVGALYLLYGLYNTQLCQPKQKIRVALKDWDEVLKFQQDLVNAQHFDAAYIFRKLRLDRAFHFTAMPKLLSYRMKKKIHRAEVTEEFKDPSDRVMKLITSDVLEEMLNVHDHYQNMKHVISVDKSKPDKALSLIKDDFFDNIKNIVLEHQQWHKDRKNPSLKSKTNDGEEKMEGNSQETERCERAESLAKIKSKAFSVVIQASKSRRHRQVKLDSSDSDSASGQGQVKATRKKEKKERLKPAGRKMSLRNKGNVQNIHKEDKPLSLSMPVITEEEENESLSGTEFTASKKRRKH
# Chain of UniProt Q8TCE6 (whole entry, looked up): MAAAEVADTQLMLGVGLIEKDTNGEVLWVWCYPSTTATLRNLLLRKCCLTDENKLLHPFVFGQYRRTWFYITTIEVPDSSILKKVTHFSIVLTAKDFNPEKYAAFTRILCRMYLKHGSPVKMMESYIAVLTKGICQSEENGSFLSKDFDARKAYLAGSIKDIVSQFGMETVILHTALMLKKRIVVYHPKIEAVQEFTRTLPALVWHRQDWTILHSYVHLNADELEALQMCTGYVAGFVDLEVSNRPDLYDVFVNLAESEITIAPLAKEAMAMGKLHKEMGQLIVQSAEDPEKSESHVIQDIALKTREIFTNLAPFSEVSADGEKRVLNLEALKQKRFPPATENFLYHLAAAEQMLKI
# Chain of UniProt O74988 (whole entry, looked up): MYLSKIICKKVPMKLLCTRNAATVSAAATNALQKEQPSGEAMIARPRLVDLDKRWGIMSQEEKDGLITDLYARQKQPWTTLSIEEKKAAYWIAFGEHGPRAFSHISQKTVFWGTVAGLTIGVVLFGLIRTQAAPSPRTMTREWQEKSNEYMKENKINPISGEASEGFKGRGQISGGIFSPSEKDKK
# Chain of UniProt P74879 (whole entry, looked up): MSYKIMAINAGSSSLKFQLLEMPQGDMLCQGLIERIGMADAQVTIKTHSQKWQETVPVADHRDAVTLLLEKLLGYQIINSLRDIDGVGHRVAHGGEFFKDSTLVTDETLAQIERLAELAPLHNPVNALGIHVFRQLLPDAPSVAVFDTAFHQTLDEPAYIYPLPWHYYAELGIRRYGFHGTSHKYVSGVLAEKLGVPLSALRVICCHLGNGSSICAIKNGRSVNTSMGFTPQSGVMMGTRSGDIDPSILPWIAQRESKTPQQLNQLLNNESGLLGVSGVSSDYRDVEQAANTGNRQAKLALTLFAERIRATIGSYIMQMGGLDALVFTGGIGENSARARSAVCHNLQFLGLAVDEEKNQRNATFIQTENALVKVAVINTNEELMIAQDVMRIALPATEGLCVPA
# Chain of UniProt P49922 (whole entry, looked up): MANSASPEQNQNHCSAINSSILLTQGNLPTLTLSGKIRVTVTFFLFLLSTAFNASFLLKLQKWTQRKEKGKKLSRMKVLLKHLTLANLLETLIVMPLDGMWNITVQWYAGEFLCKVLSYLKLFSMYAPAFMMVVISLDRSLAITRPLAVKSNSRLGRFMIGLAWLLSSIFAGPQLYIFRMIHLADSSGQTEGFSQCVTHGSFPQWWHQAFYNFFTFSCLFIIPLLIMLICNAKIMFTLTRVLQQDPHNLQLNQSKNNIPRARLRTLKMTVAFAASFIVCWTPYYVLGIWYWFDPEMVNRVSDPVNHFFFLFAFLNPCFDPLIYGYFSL
# Chain of UniProt O95456 (whole entry, looked up): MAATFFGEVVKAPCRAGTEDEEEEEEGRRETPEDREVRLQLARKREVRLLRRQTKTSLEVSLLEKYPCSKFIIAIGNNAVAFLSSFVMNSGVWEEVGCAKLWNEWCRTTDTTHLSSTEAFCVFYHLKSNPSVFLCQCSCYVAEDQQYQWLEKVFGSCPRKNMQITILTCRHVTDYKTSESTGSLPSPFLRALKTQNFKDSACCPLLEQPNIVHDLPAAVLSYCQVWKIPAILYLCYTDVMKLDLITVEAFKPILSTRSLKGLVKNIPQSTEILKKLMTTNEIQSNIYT
# Chain of UniProt P30043 (whole entry, looked up): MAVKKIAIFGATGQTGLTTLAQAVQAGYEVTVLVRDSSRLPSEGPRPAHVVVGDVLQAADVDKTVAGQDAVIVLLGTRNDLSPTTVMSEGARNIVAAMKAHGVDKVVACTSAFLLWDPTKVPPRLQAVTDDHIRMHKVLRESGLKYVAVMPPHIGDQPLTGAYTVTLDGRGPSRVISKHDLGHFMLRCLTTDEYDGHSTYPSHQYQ
# Chain of UniProt Q09312 (whole entry, looked up): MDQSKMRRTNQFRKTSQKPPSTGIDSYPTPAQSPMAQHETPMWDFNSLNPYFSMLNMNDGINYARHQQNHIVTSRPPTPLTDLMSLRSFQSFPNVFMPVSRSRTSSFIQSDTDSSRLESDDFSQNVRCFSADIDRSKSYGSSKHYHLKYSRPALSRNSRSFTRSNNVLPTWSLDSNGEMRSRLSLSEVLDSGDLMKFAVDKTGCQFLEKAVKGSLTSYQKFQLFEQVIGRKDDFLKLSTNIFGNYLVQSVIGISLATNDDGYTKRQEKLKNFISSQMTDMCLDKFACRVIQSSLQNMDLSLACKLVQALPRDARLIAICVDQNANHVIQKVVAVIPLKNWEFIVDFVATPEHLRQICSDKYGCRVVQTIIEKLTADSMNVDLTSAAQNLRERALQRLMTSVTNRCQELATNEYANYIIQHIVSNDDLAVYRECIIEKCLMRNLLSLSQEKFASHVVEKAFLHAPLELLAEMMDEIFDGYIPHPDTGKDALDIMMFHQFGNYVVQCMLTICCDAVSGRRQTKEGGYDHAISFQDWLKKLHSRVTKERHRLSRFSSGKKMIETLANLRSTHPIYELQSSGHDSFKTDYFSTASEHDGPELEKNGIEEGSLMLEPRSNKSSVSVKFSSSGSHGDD
# Chain of UniProt P19263 (whole entry, looked up): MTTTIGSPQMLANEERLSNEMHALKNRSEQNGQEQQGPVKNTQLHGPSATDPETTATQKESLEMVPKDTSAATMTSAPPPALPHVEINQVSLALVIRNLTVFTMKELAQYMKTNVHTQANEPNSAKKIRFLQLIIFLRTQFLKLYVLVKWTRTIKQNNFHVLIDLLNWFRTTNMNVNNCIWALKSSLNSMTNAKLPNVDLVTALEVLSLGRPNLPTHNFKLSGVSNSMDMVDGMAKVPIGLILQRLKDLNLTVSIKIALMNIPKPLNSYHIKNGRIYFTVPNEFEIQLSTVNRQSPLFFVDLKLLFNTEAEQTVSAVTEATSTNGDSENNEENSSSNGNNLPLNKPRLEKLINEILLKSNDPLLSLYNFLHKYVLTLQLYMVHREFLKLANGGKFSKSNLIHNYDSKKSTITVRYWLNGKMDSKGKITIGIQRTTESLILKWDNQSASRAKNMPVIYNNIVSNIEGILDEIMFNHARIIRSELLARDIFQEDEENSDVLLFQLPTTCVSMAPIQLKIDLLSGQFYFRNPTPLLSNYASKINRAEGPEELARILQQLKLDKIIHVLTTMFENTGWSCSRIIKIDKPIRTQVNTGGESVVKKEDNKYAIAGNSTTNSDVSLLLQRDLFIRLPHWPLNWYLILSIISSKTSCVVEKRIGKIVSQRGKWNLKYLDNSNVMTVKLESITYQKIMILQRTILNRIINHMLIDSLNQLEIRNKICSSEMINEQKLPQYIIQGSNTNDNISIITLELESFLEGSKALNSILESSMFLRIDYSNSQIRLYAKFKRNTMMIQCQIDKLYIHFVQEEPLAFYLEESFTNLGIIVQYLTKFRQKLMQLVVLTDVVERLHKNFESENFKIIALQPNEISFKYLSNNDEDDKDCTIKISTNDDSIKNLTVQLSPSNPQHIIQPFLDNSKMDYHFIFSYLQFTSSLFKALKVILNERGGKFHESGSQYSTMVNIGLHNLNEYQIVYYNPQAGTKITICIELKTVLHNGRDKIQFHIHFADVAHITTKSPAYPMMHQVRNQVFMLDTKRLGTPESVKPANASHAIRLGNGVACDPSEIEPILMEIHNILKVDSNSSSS
# Chain of UniProt Q9B6E8 (whole entry, looked up): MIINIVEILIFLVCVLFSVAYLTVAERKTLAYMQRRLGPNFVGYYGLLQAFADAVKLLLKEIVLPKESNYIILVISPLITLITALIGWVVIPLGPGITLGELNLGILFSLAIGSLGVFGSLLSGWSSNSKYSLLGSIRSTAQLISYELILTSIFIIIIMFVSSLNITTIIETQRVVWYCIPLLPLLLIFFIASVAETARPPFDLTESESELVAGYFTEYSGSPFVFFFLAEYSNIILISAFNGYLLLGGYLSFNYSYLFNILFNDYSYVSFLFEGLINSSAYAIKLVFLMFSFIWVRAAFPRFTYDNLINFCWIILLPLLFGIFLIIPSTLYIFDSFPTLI
Molecule,partner,assay,system,binding
B1 (NUP60 240-318),NUP85/SEH1 Nup85 1-564 (Saccharomyces cerevisiae),pull-down,,binds
B2 (CCDC93 305-433),"DENND10 (Homo sapiens, UniProt Q8TCE6)",SEC,,binds
B3 (NFE2L2 155-220),"EP300 TAZ2 1723-1812 x (Homo sapiens, UniProt Q09472)",circular dichroism,,binds
B4 (RAD51),MLH1/MLH3 (Saccharomyces cerevisiae),co-IP,,binds
B5 (exbD 43-140),"hasB 37-263 (Serratia marcescens, UniProt Q79AD1)",NMR titration,,binds
B6 (Secisbp2 399-846 x),"Eefsec (Mus musculus, UniProt Q9JHW4)",EMSA,,binds
B7 (qcr10),"COX5 mature (Schizosaccharomyces pombe, UniProt O74988)",cryo-EM,,binds
B8 (SF3B1 454-1304 R625H),"SF3B3 (Homo sapiens, UniProt Q15393)",cryo-EM,,binds
KBTBD2 S252D (Homo sapiens) (sequence not shown),"CUL3 (Homo sapiens, UniProt Q13618)",cryo-EM,,binds
"NGVTATILEPRARVEKDYGK (gld-3 860-879 K864A (Caenorhabditis elegans, UniProt Q95ZK7); sequence looked up)","fbf-2 164-575 (Caenorhabditis elegans, UniProt Q09312)",fluorescence polarisation,peptide,binds
B9 (CFTR 1381-1480),"PTEN 1-351 (Homo sapiens, UniProt P60484)",pull-down,,binds
"propionate kinase (Salmonella enterica, UniProt P74879)",PduC/PduD/PduE (Salmonella enterica Typhimurium LT2),cross-linking,,binds
B10 (SIN4 1-974),"RGR1 1-1082 (Saccharomyces cerevisiae, UniProt P19263)",cryo-EM,,binds
B11 (PIK3R1 1-79),"PIK3R1 80-724 (Homo sapiens, UniProt P27986)",ITC,,binds
B12 (rasC Q62L/R164E),racE T25N/S192D/E173R (Dictyostelium discoideum),pull-down,,binds
B13 (SNAPC5),"SNAPC1 (Homo sapiens, UniProt Q16533)",cross-linking,,binds
B14 (PSMA5),"PSMG1 (Homo sapiens, UniProt O95456)",cryo-EM,,binds
B15 (ND6 1-185),"ND1 1-341 (Yarrowia lipolytica, UniProt Q9B6E8)",cryo-EM,,binds
"QHWSYGLRPG (GNRH1 mature decapeptide; N-terminal pGlu, C-terminal amide)","GNRHR (Sus scrofa, UniProt P49922)",cryo-EM,peptide,binds
B16 (KPNA6),"TF S685D (Homo sapiens, UniProt P02787)",GST pull-down,,binds
"MEELQDDYEDMMEENLEQEEYEDPDIPESQMEEPAAHDTEATATDYHTTSHPGTHK (SLC4A1 1-56 (Homo sapiens, UniProt P02730); sequence looked up)","BLVRB (Homo sapiens, UniProt P30043)",NMR titration,peptide,binds
B17 (SIR4 744-1358),"SIR3 1-850 (Saccharomyces cerevisiae, UniProt P06701)",cross-linking mass spectrometry,,binds

# Some of these lines once more:
Molecule,partner,assay,system,binding
B6 (Secisbp2 399-846 x),"Eefsec (Mus musculus, UniProt Q9JHW4)",EMSA,,binds
"QHWSYGLRPG (GNRH1 mature decapeptide; N-terminal pGlu, C-terminal amide)","GNRHR (Sus scrofa, UniProt P49922)",cryo-EM,peptide,binds
